# Measurements gathered from unrelated publications.
# Every numbered part comes from another study and shows a few of its results, in no order.

# Sample 1
# Target: Max dimerization protein 1, bHLH-zipper, MAX partner unstated (MXD1, Homo sapiens, UniProt Q05195, residues 56-136)
# Method: protein-binding microarray
# Form: double-stranded DNA, one strand shown
# Sample: in vitro
# Concentration: not given
# Setting: k-mer, scored over probes, only values ≥0.25
# Reading: higher = stronger binding
# Target sequence (chain): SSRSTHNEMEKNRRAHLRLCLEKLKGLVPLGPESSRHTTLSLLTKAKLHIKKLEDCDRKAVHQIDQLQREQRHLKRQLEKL
Strand,E-score
ATGTGTCA,0.288
ATGCGCTG,0.291
CGCGCCCC,0.252
AAGCATGT,0.41

# Sample 2
# Target: Interferon regulatory factor 3, full length, phosphomimetic (IRF3, Homo sapiens, UniProt Q14653, residues 1-427, S386D/S396D/S398D/S402D/T404D/S405D)
# Method: protein-binding microarray
# Form: double-stranded DNA, one strand shown
# Sample: in vitro
# Concentration: 2540 nM top
# Setting: 60-bp whole probe
# Together with: salmon DNA 0.4 mg/ml
# Relative to: random background probes
# Reading: higher = stronger binding
# Construct (chain): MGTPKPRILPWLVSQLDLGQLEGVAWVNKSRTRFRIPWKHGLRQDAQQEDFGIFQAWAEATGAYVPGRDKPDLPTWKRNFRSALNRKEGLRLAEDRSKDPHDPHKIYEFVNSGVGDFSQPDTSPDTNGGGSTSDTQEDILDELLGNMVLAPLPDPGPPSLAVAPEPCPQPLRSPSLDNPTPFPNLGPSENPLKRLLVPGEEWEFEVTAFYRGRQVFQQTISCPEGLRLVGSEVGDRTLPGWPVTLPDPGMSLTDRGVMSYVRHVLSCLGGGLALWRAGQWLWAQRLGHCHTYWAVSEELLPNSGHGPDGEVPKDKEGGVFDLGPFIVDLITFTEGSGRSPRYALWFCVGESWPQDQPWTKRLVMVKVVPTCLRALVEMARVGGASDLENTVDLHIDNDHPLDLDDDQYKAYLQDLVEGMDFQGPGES
Strand,fitted relative affinity [z-score]
GCCTAGCACGACGAACTGAGACTGGAAACGTGCTAGGTCTTGATTCGCTTGACGCTGCTG,0.225
GCCTAGCACGTGTGTTTGAGTCTTCTCCTGTGCTAGGTCTTGATTCGCTTGACGCTGCTG,-0.458
GCCTAGCACCAGAATTTACTTTCTACGTCGTGCTAGGTCTTGATTCGCTTGACGCTGCTG,1.34
GCCTAGCACTGGCCTGTGCTATTTATAAGGGTGCTAGTCTTGATTCGCTTGACGCTGCTG,-0.282

# Sample 3
# Target: Histone acetyltransferase KAT6A, winged helix 1, GST fusion (KAT6A, Homo sapiens, UniProt Q92794, residues 1-85)
# Method: protein binding microarray
# Form: double-stranded DNA, one strand shown
# Sample: in vitro
# Concentration: not given
# Setting: 8-mer, flanks averaged, mean of 2 arrays, mostly near background
# Relative to: not given
# Reading: higher = stronger binding
# Residues (chain): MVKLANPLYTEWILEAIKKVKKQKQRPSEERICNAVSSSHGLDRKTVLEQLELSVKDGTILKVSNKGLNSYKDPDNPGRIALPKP
Strand,E-score
CCAAAAGA,-0.195
GACAGAGC,-0.00066
CAATAGGG,-0.0706
ACCGGCAT,0.319

# Single results of other studies
Substance,target,test,test system,setting,how to read,endpoint,value
"PhoQ, residues 284 288 289 292 302 303 GTAMQF","PhoP, residues 12 14 15 18 19 LHTVM (Escherichia coli, UniProt P23836)","Sort-seq, measured: YFP reporter",E. coli,"PhoQ-PhoP variant library, together with: 10 µM Mg2+","relative to: high Mg2+ state, higher = stronger signaling",fold induction,98.5

# Repeated from above (sample 1):
Strand,E-score
CGCGCCCC,0.252
